Measurements of several laboratories.
Protocols differ between the studies behind these lines. ± marks the error that the study gave. In brackets after ≈: the same amount, converted by molar mass.
CD58: Lymphocyte function-associated antigen 3 (CD58, Homo sapiens, UniProt P19256)

SMILES | target or system | assay | system | setting | measurement | value
COCCNc1nc(-c2nccn2C)nc2sc(-c3cccc(OC)c3Cl)c(-c3ccccc3)c12 | GTPase KRas (KRAS, Homo sapiens, UniProt P01116, Q61H) | GTP binding, inhibitor, cell-free GTP competition | – | with: fluorescent GTP 100 nmol/L | IC50 | 5 µM
O=C(/C=C/c1ccc(Cl)cc1)N1CCC2(CC1)CN(Cc1ccc(Cl)c(Cl)c1)C(=O)O2 | G-protein coupled receptor 183 (GPR183, Homo sapiens, UniProt P32249) | GTPγS binding, antagonist | CHO membranes | with: 7α,25-OHC 1 nM | IC50 | 0.2 µM
COc1cc(-c2nc(SCc3cn(CC(=O)NC(=O)Nc4ccccn4)nn3)nc(Nc3ccc(Cl)cc3)c2C#N)cc(OC)c1OC | Lysine-specific histone demethylase 1A (KDM1A, Homo sapiens, UniProt O60341) | enzyme activity, inhibitor, fluorescence | – | – | IC50 | 0.965 µM
CCN(CC)CCCSC(=S)N1CCN(C(=O)/C=C/c2coc3cc(F)ccc3c2=O)CC1 | tomato spotted wilt virus | virus inactivation, half-leaf method | Nicotiana glutinosa | tested 31.25 to 500 µg/mL | EC50 | 236 ± 8.5 µg/mL (≈ 479 µM)
CCC(=O)NC1CN(CCCCC2CCN(CC(=O)N3c4ccccc4NC(=O)c4ccccc43)CC2)CCN(CCCOc2nsnc2C2=CCCN(C)C2)C1 (stereo not drawn) | Muscarinic acetylcholine receptor M2 (CHRM2, Homo sapiens, UniProt P08172) | inositol phosphate, antagonist | – | – | Kb | 0.0661 µM
C[C@@H]1NC(=O)[C@@H]2CSSC[C@H](NC(=O)[C@H](CC(=O)O)NC(=O)[C@H](CC(=O)O)NC(=O)CNC(=O)[C@H](CC(=O)O)NC(=O)[C@H](Cc3ccc(O)cc3)NC1=O)C(=O)N[C@@H](CCCCN)C(=O)N[C@@H](CO)C(=O)N[C@@H](C)C(=O)NCCc1cccc3c1Oc1c(cccc1-3)CCC(=O)N[C@@H](CO)C(=O)N2 | CD58 | Jurkat adhesion to HFLS-RA cells | Jurkat, HFLS-RA | 1 h | IC50 | 0.0038 ± 0.002 µM
C[C@@H]1CCN(c2nc3cc(Cl)ccc3o2)CCN1S(=O)(=O)c1ccccc1F | Orexin/Hypocretin receptor type 1 (HCRTR1, Homo sapiens, UniProt O43613) | calcium signal, antagonist, fluorescence | – | – | IC50 | 1.58 µM
CCCC[C@H](NC(C)=O)C(=O)NCC(=O)N[C@@H](Cc1c[nH]c2ccccc12)C(=O)N[C@@H](CCCC)C(=O)N[C@@H](CC(=O)O)C(=O)N[C@@H](Cc1ccccc1)C(N)=O | Gastrin/cholecystokinin type B receptor (CCKBR, Homo sapiens, UniProt P32239) | ligand displacement | – | – | IC50 | 0.026 µM
CC(C)CN(C)c1nc(N)c(C(=O)N=C(N)N)nc1Cl | CatSper channel complex (Homo sapiens, UniProt Q7RTX7+Q86XQ3+Q8NEC5+Q96P56) | calcium influx, inhibitor, FLIPR | human sperm | with: 3 µM progesterone | IC50 | 9.1 ± 0.4 µM
Oc1ccc(O)c(CN(CCN(Cc2ccccn2)Cc2cc(O)ccc2O)Cc2ccccn2)c1.[Br-].[Br-].[Mn+2] | – | lucigenin competition from IC50 | – | with: xanthine oxidase/hypoxanthine | superoxide reaction rate constant | 2.1e+08 M⁻¹ s⁻¹
C=CC1(C)CCC2C(=CC3OC(=O)C4(C)C3C23CCC4(O)OC3)C1 (stereo not drawn) | Trypsin (Sus scrofa, UniProt P00761) | enzyme activity, inhibitor, absorbance | – | – | IC50 | 2680 µM
CCN(CC)CCCSC(=S)N1CCN(C(=O)/C=C/c2coc3ccc(F)cc3c2=O)CC1 | tomato spotted wilt virus | viral infection, half-leaf method | Nicotiana glutinosa | 500 µg/mL | inactivation effect | 62.4 ± 2.6%
CCOc1c(C(C)(C)O)sc2cnc(Nc3ccc(N4CCC(N5CC6(COC6)C5)CC4)cc3OC)nc12 | A-type voltage-gated potassium channel KCND3 (KCND3, Homo sapiens, UniProt Q9UK17) | Ito current, inhibitor, whole-cell patch clamp | HEK recombinant cells | – | IC50 | > 100 µM
N[C@@H](CCC(=O)N[C@@H](CS[Se]Cc1ccc(C(=O)Nc2cc(C(F)(F)F)c(Br)c(C(F)(F)F)c2)cc1)C(=O)NCC(=O)O)C(=O)O | Receptor-type tyrosine-protein phosphatase C (PTPRC, Homo sapiens, UniProt P08575) | enzyme activity, inhibitor | – | with: pNPP, GSH 1 mM | IC50 | > 100 µM
CC[C@H](C)[C@H](NC(=O)[C@H](C)NC(=O)[C@H](CCCCN)NC(=O)[C@@H](NC(=O)[C@H](CO)NC(=O)[C@@H](NC(=O)[C@H](C)NC(=O)[C@H](CC(=O)O)NC(=O)[C@@H](NC(=O)[C@H](CCCCN)NC(=O)CNC(=O)[C@@H](N)CCCCN)[C@@H](C)O)[C@@H](C)CC)C(C)C)C(N)=O | CD58 | cell adhesion, inhibitor | Jurkat and OVCAR-3 | – | IC50 | > 100 µM

Some of these lines once more:
SMILES | target or system | assay | system | setting | measurement | value
CCCC[C@H](NC(C)=O)C(=O)NCC(=O)N[C@@H](Cc1c[nH]c2ccccc12)C(=O)N[C@@H](CCCC)C(=O)N[C@@H](CC(=O)O)C(=O)N[C@@H](Cc1ccccc1)C(N)=O | Gastrin/cholecystokinin type B receptor (CCKBR, Homo sapiens, UniProt P32239) | ligand displacement | – | – | IC50 | 0.026 µM
CC(C)CN(C)c1nc(N)c(C(=O)N=C(N)N)nc1Cl | CatSper channel complex (Homo sapiens, UniProt Q7RTX7+Q86XQ3+Q8NEC5+Q96P56) | calcium influx, inhibitor, FLIPR | human sperm | with: 3 µM progesterone | IC50 | 9.1 ± 0.4 µM
